Experimental data gathered from unrelated publications.
Each numbered part is a random draw from the data of one study; scales do not carry over between parts. Substitutions count along the parent as printed.

Study 1 — technique: RNA Bind-n-Seq; form: RNA; sample: in vitro; tested at: 365 nM; relative to: no-protein control; direction: higher = stronger binding
Target: RNA binding protein fox-1 homolog 2, RRM domain, GST-SBP tag (RBFOX2, Homo sapiens, UniProt O43251-10, residues 100-194)
Setting: natural RNA segment, single round, ends assumed
Construct (chain): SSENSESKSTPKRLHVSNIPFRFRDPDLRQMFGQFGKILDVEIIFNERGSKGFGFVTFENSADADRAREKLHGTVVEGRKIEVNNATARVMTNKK
Under “RBNS enrichment (R)”, `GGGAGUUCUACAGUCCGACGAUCUUUUAGCAAGCAUUAAAGCAAAUGUAUGGCUGCCUUUUGAAAUAUUUGAUGUGUUGCCUGGCAGGAUACUGCAAAGAACAUGGUUUAUUUUAAAAUUUAUAAACAAGUCAUGGAAUUCUCGGGUGCCAA` is recorded as 1.02.
For `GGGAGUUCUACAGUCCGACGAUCACAUUCACAGGUGCACGCAUAUAUGUGUGUCGCCCCCACCCCCGCCAUGGCAUUUCAUGAUAUGUGAUUAGGAGCUCGUGUGCACCCUCAUAUCCAUUCCAUGAGAAGGUUGGAAUUCUCGGGUGCCAA`, “RBNS enrichment (R)” read 0.551.
`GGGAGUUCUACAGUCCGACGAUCUUUGGGCCCAGUGCCUUGGUGAAGGUUGAUUAGCUUGACUGUCUUUGAAAGUAUCUGAUGGAGCUCCUGAUGACCUAAUGUAUCCUUUAGAAAUUUAAAAUAGCAUUAGAUGGAAUUCUCGGGUGCCAA` — result for “RBNS enrichment (R)”: 0.565.
`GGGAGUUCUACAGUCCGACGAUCCCAUAGCCCUCCUGAUGCAGUAGACAGUGCUAUGCUGUGGAUAUAAUACCAACCAGAAAUUGGCAUUUAUAAACCUGUUAAGAGACUUUAAGCAUGCUUCAAGAGGCAGUUGGAAUUCUCGGGUGCCAA`: “RBNS enrichment (R)” 0.474.
`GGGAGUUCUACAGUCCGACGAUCCGAGGAGAACUGAGACUCUGCCUUACCACCGCAGUGCGGGGCACCUCUCCCAGCGUUUCUCCGGUUUGCCAAUCCUCUUAAGUAUUCCUGUCUCCAAAGGACCGGCUCUCUGGAAUUCUCGGGUGCCAA` — result for “RBNS enrichment (R)”: 0.196.
`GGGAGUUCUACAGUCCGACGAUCUCUAAUUUUAUAUAUAGAGAAAGUGACCUAUUUUUUAAAAAAAUCACACUCUAAGUUCUAUUGAACCUAGGACUUGAGCCUCCAUUUCUGGCUUCUAGUCUGGUGUUCUGUGGAAUUCUCGGGUGCCAA` — result for “RBNS enrichment (R)”: 0.333.
Under “RBNS enrichment (R)”, `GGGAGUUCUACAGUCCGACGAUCACCUGCCACGGCCACCUCCGAGACAAAAUCCUUGCUGCUUCUCUUUCAUGGUGCUGUCCCGCCGGAGGAGGCCAUCCAUCCGUCCCUGGGAUGCAACAUGGGGUCCCAAUUGGAAUUCUCGGGUGCCAA` is recorded as 0.309.
`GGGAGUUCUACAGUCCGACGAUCGAGAACUUUCUGGACGUCGAUGUUAUCUCAAAGGAAAGCUAUGCAUUGCUGCUUCUUUGUUACCUUGCUUAUGCUUUGCUUUAAUUAGGCCUCUCUCUCUCCCUCUCUCUUGGAAUUCUCGGGUGCCAA`: “RBNS enrichment (R)” 0.43.
Under “RBNS enrichment (R)”, `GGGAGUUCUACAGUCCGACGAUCAGCAUAUCUAAGUGCCAUGAAUACAUUUUCCCUACUCUAUAGCAUAGCUCUGUAAAACUUGUCCUGUGAGCGAGGCAGGUGCUAUCUGAGAGAGGGAUCUUGCAGCUGUCUGGAAUUCUCGGGUGCCAA` is recorded as 0.443.
For `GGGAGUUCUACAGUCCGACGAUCGACAAUAGGAAGAGAUGUCAUCUCUGCUCUCCCUGUAAAUGUUAGUUGAACUAAGUUAUGGAUUUGUGGUCUUUCAAAUACAUGACGCCUUUAGUAUGCCACACUGAAAUUGGAAUUCUCGGGUGCCAA`, “RBNS enrichment (R)” read 0.766.
Under “RBNS enrichment (R)”, `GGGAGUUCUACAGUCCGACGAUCCAUAUUUAUGCAAAUUAAAUGCCCUUAAAAUUUUGCCAUUUGUCUUUCAUUUUAAAGGUUAUUUGCCCUCAAUUAUAUAAUUUCAGUGUUAUAAAGUUUAGCUUAAACUCUGGAAUUCUCGGGUGCCAA` is recorded as 0.823.
For `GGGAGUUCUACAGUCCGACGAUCACCUUUUCACUAACCCCACUUCUGUGUGUUCUGCAUGGCGCCUGCCCCAGGGCAUCUGCCAACUCCAGUAUCAGCUCUCACAGUGUACUUGGUACCAUCCCUGGGCUCUGUGGAAUUCUCGGGUGCCAA`, “RBNS enrichment (R)” read 0.306.

Study 2 — technique: DHFR PCA, deep sequencing; sample: yeast; with: (+)-ABA 0.39 µM; relative to: wild-type fitted maximum; direction: higher = stronger binding
Target: ABI1, truncated, D143A, DHFR fusion (Arabidopsis thaliana)
Setting: methotrexate growth selection, single substitutions
Parent: PYL1, truncated, DHFR fusion (Arabidopsis thaliana); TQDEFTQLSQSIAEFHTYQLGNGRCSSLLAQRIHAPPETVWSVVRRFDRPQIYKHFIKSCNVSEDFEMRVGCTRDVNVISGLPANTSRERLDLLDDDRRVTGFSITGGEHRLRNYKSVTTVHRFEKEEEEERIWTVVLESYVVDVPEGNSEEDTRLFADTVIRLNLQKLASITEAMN; partner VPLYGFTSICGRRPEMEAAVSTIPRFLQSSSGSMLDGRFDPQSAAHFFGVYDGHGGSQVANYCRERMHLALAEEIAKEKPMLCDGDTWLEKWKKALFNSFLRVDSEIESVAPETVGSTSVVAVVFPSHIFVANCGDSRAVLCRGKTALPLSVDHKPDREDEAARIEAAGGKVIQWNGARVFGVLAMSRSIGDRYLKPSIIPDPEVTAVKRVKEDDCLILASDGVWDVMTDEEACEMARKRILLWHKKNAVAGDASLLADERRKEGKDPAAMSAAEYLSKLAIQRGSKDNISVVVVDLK
Under “relative binding score”, `T17K` is recorded as 18.9%.
For `D159V`, “relative binding score” read -10.3%.
`C72G`: “relative binding score” -1.56%.
For `I162E`, “relative binding score” read -5.32%.
`T154L`: “relative binding score” -14.2%.
`Y18D` — result for “relative binding score”: -10.9%.
For `L91T`, “relative binding score” read -8.42%.
For `A13S`, “relative binding score” read 41.4%.
`S59I` — result for “relative binding score”: 10%.
Under “relative binding score”, `E127V` is recorded as 42.4%.
For `I57C`, “relative binding score” read -7.28%.
`N85F`: “relative binding score” 62.1%.
Under “relative binding score”, `D144Q` is recorded as -10.5%.
For `V137P`, “relative binding score” read 12.3%.
`M68F` — result for “relative binding score”: 18.6%.
Under “relative binding score”, `Q31A` is recorded as -2.4%.

Study 3 — technique: protein binding microarray; form: double-stranded DNA, one strand shown; sample: in vitro; tested at: not given; relative to: not given; direction: higher = stronger binding
Target: Histone acetyltransferase KAT6A, winged helix 1, GST fusion (KAT6A, Homo sapiens, UniProt Q92794, residues 1-85)
Setting: 8-mer, flanks averaged, mean of 2 arrays, mostly near background
Residues (chain): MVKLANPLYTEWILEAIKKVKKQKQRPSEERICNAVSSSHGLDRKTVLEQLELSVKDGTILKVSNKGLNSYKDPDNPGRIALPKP
The E-score of `GGTCCATA` is reported as -0.125.
`AGACACCA` gave an E-score of -0.306.
With `GATATACA` the E-score was 0.0345.
`AAAGTCGT` gave an E-score of -0.0717.
`TAAATCTA` gave an E-score of -0.0824.
The E-score of `CCCTACCG` is reported as 0.123.
`CTTCTACA` has an E-score of -0.208.
With `GAGATGAA` the E-score was -0.139.
`GACGTCAC` gave an E-score of 0.0272.
`CCAGTGGA` gave an E-score of -0.266.
For `AATGGTTA`, the E-score was -0.102.
`CGAGAGTC` has an E-score of -0.0354.
The E-score of `AAGGCTGA` is reported as -0.224.
For `GTCAATCA`, the E-score was -0.158.
`GGTAATTA` gave an E-score of 0.0531.
`AGTACAGA` gave an E-score of -0.0236.
For `CCAGTGAA`, the E-score was -0.145.
For `ATGAGCCA`, the E-score was -0.254.
`ACCCCGCG` gave an E-score of 0.394.
With `GGGTAAAC` the E-score was -0.0429.
For `TGTTTTAA`, the E-score was -0.129.
`AACCGGGC` has an E-score of 0.204.
`ATTAGGGC` has an E-score of -0.123.
The E-score of `ACTGCAAC` is reported as -0.15.
`AAGTGTTC` has an E-score of -0.0836.

Study 4 — target: CCNE2, cyclin fold, Cln2 fusion (human); technique: yeast growth competition, sequencing; sample: yeast; setting: weak parent motif; relative to: not given; direction: higher = stronger binding
Parent: DBF4 docking peptide (human); DDIVSKLVFDFVE; partner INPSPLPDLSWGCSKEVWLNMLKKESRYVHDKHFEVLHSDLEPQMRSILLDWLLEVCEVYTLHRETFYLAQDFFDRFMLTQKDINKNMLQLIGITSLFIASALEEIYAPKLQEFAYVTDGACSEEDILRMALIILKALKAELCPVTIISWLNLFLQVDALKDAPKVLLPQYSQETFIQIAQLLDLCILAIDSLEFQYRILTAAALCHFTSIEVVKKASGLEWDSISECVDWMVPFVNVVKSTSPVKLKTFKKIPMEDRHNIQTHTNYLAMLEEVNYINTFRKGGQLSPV
For `DDIVSKLVADFVE [F9A]`, “normalised enrichment score” read -0.21.
For `DDIVSKLAFDFVE [V8A]`, “normalised enrichment score” read -0.0383.
`DDIVSKAVFDFVE [L7A]` — result for “normalised enrichment score”: -0.131.
For `DDIVSKLVFDFAE [V12A]`, “normalised enrichment score” read -0.107.
For `DDAVSKLVFDFVE [I3A]`, “normalised enrichment score” read -0.0172.
`DDIVSKLVFDFVA [E13A]`: “normalised enrichment score” -0.0023.

Study 5 — technique: protein-binding microarray; form: double-stranded DNA, one strand shown; sample: in vitro; tested at: 250 nM; setting: 60-bp whole probe; with: salmon DNA 0.4 mg/ml; relative to: random background probes; direction: higher = stronger binding; shared flanks, not repeated: GCCTAGCAC … GTCTTGATTCGCTTGACGCTGCTG
Target: Interferon regulatory factor 5, full length, phosphomimetic (IRF5, Homo sapiens, UniProt Q13568-2, residues 1-514, K96S/S451D/S453D/S456D/S462D)
With `TTAGGGATCGGACTGGGTTAGTGCTAG` the log fluorescence was -0.332 z-score.
`TTAGGTATCGACACTGAGTTAGTGCTA` has a log fluorescence of 2.56 z-score.
For `TTAGGACTGGGGACTGGGGTAGTGCTA`, the log fluorescence was -0.133 z-score.
`GGAGCGCCAGGCCCCGGCAGGTGCTAG` has a log fluorescence of -1.18 z-score.
The log fluorescence of `TTAGGACTGGGTACCGGTTAGTGCTAG` is reported as -0.335 z-score.
The log fluorescence of `TTAGAACTGGGGACTGCATTAGTGCTA` is reported as -0.251 z-score.
`TCAGGAAACTTAAACTAGACTGTGCTA` gave a log fluorescence of 0.563 z-score.
With `AACGATGCAAGTGCCCTTCGGTGCTAG` the log fluorescence was 0.0481 z-score.
For `TTAGGTATTCTACTGCTTTAGTGCTAG`, the log fluorescence was 0.103 z-score.
`GACGGACTGGGTCTCGGGGCGTGCTAG` gave a log fluorescence of -0.728 z-score.
For `GACGGTTTCGGGTATCGGGACGTGCTA`, the log fluorescence was 7.66 z-score.
The log fluorescence of `AAGCCAGCCAAGGCCACTGTGTGCTAG` is reported as -0.868 z-score.
`TTAGGTATCAGACTGGATTAGTGCTAG` has a log fluorescence of 0.169 z-score.
`ATAGGTTTCGGTCTCGGTTAGTGCTAG` gave a log fluorescence of 10.1 z-score.
`GACGGACTGCTTCTTCTGACGTGCTAG` gave a log fluorescence of -0.427 z-score.
With `TTAGGTATCGGTCTTGGTTAGTGCTAG` the log fluorescence was 6.58 z-score.
With `GACGGTATCGACACTGGGGAAGTGCTA` the log fluorescence was 1.63 z-score.
For `GCCGATCTCAGTCTCGAGACGTGCTAG`, the log fluorescence was 0.0766 z-score.
`GACGGTTTCTGGTTTCGGGACGTGCTA` gave a log fluorescence of 5.09 z-score.
`TATCCTATCAGTTTAATATCGTGCTAG` has a log fluorescence of 2.72 z-score.
`CTCTGGGGAGATCAGCGCATGTGCTAG` has a log fluorescence of -0.879 z-score.
The log fluorescence of `TCAATTTTTAGGATGGGACTGTGCTAG` is reported as 0.0543 z-score.
The log fluorescence of `GACGGATTGGACACTGGGGACGTGCTA` is reported as -0.241 z-score.
`GGGGGAAATGGGAAACCCGGGGTGCTA` has a log fluorescence of 0.312 z-score.
The log fluorescence of `TTAGATTTCGGGGCTGGATTAGTGCTA` is reported as 2.2 z-score.

A few entries again (study 3):
`CCAGTGGA` gave an E-score of -0.266.
`CGAGAGTC` has an E-score of -0.0354.
`AAGTGTTC` has an E-score of -0.0836.
The E-score of `CCCTACCG` is reported as 0.123.
`TAAATCTA` gave an E-score of -0.0824.
With `GGGTAAAC` the E-score was -0.0429.
For `GTCAATCA`, the E-score was -0.158.
`AGACACCA` gave an E-score of -0.306.
For `ATGAGCCA`, the E-score was -0.254.
The E-score of `GGTCCATA` is reported as -0.125.
